{"data": "Published values gathered from unrelated publications", "note": "Every numbered part comes from another study and shows a few of its results, in no order. Substitutions count along the parent as printed."}
{"data": "Sample 1", "target": "CCNE1, cyclin fold, Cln2 fusion (human)", "method": "yeast growth competition, sequencing", "medium": "yeast", "notes": "weak parent motif", "relative to": "not given", "reading": "higher = stronger binding", "parent": "DOT1L docking peptide (human); SEAKRRIVFTITT"}
{"Change": "SEAKARIVFTITT [R5A]", "normalised enrichment score": -0.0333}
{"Change": "SEAKRRIVFAITT [T10A]", "normalised enrichment score": 0.373}
{"Change": "SEAKRRIVFTATT [I11A]", "normalised enrichment score": 0.486}
{"Change": "AEAKRRIVFTITT [S1A]", "normalised enrichment score": 0.541}
{"Change": "SEAKRRIVFTITA [T13A]", "normalised enrichment score": 0.635}
{"Change": "SEAKRRIVATITT [F9A]", "normalised enrichment score": 0.261}
{"data": "Sample 2", "target": "PABPC1L2, full length, GST fusion (mouse, UniProt A0ABA7IW68)", "method": "RNAcompete", "form": "RNA", "medium": "in vitro", "concentration": "20 nM", "notes": "7-mer, probes averaged, single round", "relative to": "mean of 7-mers", "reading": "higher = stronger binding", "Target sequence (chain)": "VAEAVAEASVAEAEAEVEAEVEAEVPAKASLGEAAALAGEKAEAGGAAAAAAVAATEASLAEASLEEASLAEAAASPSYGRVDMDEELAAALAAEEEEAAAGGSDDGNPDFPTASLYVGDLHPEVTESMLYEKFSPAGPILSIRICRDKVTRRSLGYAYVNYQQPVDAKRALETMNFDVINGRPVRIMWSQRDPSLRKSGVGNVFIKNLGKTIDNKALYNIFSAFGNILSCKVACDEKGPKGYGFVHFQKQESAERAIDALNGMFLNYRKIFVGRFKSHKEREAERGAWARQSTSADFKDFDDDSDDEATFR"}
{"Sequence": "UAUAUUC", "7-mer Z-score": -0.193}
{"Sequence": "UAUGACG", "7-mer Z-score": -0.0881}
{"Sequence": "CCGGCGC", "7-mer Z-score": -0.353}
{"Sequence": "GGGACCA", "7-mer Z-score": 0.412}
{"Sequence": "UCAACUU", "7-mer Z-score": -0.324}
{"Sequence": "GCAGAUC", "7-mer Z-score": 0.0334}
{"Sequence": "GCCGUAC", "7-mer Z-score": -0.304}
{"Sequence": "AUGUCAG", "7-mer Z-score": -0.0337}
{"data": "Further values, each from its own experiment", "P1": "PafA, mature enzyme, eGFP fusion (Elizabethkingia meningoseptica, UniProt Q9KJX5); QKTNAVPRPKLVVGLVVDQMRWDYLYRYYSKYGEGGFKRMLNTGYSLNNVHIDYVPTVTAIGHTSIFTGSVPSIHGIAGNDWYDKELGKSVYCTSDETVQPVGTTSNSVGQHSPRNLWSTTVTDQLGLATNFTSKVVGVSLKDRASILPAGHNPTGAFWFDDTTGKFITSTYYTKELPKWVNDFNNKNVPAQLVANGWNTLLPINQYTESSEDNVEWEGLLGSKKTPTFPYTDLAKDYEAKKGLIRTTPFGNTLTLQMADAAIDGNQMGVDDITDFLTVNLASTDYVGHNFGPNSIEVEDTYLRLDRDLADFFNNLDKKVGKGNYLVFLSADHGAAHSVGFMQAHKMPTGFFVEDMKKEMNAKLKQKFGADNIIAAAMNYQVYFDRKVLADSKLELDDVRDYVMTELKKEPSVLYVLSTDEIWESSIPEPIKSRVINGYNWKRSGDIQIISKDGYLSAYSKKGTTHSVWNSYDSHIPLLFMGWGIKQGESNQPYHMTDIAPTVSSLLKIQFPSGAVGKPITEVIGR"}
{"Molecule": "P1 S65V", "target": "inorganic phosphate, free oxyanion", "assay": "microfluidic competitive inhibition", "system": "in vitro, cell-free expressed", "setting": "not given, derived from inhibition constants, unchanged parent 615000 nM", "scale": "lower = stronger binding", "measurement": "phosphate dissociation constant", "value": "437 µM"}
{"Molecule": "PhoQ, residues 284 288 289 292 302 303 NLGVHL", "target": "PhoP, residues 12 14 15 18 19 TPWLV (Escherichia coli, UniProt P23836)", "assay": "Sort-seq, refers to: YFP reporter", "system": "E. coli", "setting": "PhoQ-PhoP variant library, with: 10 µM Mg2+", "scale": "relative to: high Mg2+ state, higher = stronger signaling", "measurement": "fold induction", "value": 6.23}
{"note": "Excerpt of the above (sample 2):"}
{"Sequence": "UAUGACG", "7-mer Z-score": -0.0881}
{"Sequence": "CCGGCGC", "7-mer Z-score": -0.353}
{"Sequence": "GGGACCA", "7-mer Z-score": 0.412}
